Assay results of several laboratories.
Compare with care: the assays were run in different laboratories. Numbers after ± are the reported error.

| SMILES | cell line | effect on | method | time | pH | notes | IC50 |
| --- | --- | --- | --- | --- | --- | --- | --- |
| COc1cc(C(c2c(C)nn(-c3ccccc3)c2O)c2c(C)nn(-c3ccccc3)c2O)cc(OC)c1OC | HEK293 | cell growth or viability | MTT | 48 h | – | – | > 40 µM |
| CC(C)C[C@H](NC(=O)[C@H](CC(C)C)NC(=O)[C@H](CC(=O)O)NC(=O)[C@H](CCCCN)NC(=O)[C@H](Cc1ccccc1)NC(=O)CN)C(=O)N[C@@H](CCCCN)C(=O)N[C@H]1CSCc2ccc(cc2)CSC[C@@H](C(=O)N[C@@H](CC(C)C)C(=O)N[C@H](C(=O)N[C@@H](CCCCN)C(=O)N[C@H](C(=O)N[C@H](C(=O)N[C@@H](CC(C)C)C(=O)N[C@@H](Cc2ccccc2)C(N)=O)C(C)C)[C@@H](C)O)C(C)C)NC(=O)[C@H](CCCCN)NC(=O)[C@H](C)NC(=O)[C@H](C)NC1=O | U87 | cell proliferation | CCK-8 | 48 h | – | – | 12 µM |
| N.N.O=C([O][Pt]([OH])([Cl])[Cl])c1ccc(P(c2ccccc2)c2ccccc2)cc1.[Cl][Au] | IMR-90 | cell growth or viability | resazurin | 72 h | – | – | 48.9 µM |
| C[C@H]1[C@H](OCCc2ccc(O)cc2)O[C@@H]2O[C@@]3(C)CC[C@H]4[C@H](C)CC[C@@H]1[C@@]24OO3 | RPMI-7951 | cell growth or viability | MTT | 24 h | – | – | 0.33 µM |
| CN(C)C1=[S+][Au-]2([S]1)[c]1ccccc1-c1cccc[c]12 | BT-333 glioblastoma | – | MTT | 72 h | – | – | 1.99 ± 0.07 µM |
| Cc1cc(C)c(-n2ccn(-c3c(C)cc(C)cc3C)c2=[Se])c(C)c1.[Cl][Ag] | A2780 | cell growth or viability | – | 72 h | – | 3D culture | 17.4 µM |
| C[C@H]1[C@H](OC(=O)CCC(=O)OCCc2ccc(OC(=O)CCC(=O)O[C@@H]3O[C@@H]4O[C@@]5(C)CC[C@H]6[C@H](C)CC[C@@H]([C@H]3C)[C@@]46OO5)cc2)O[C@@H]2O[C@@]3(C)CC[C@H]4[C@H](C)CC[C@@H]1[C@@]24OO3 | RPMI-7951 | cell growth or viability | MTT | 24 h | – | – | 0.49 µM |
| CC(C)C[C@H](NC(=O)[C@H](CCCCN)NC(=O)[C@H](CC(C)C)NC(=O)[C@H](CC(C)C)NC(=O)[C@H](CCCCN)NC(=O)[C@H](CCCCN)NC(=O)[C@H](CC(C)C)NC(=O)[C@H](CC(C)C)NC(=O)[C@H](CCCCN)NC(=O)[C@H](CC(C)C)NC(=O)[C@H](CC(C)C)NC(=O)[C@H](CCCCN)NC(=O)[C@H](CCCCN)NC(=O)[C@@H](N)CC(C)C)C(N)=O | HK-2 | cell growth or viability | MTT | – | pH 6 | – | 9 µM |
| CC[C@H](C)[C@@H]1NC(=O)[C@H](CCCNC(=N)N)NC(=O)C[C@@H](c2cccc3ccccc23)NC(=O)[C@@H]2CSSC[C@H](NC(=O)C[C@@H](c3cccc4ccccc34)NC(=O)[C@H](CCCNC(=N)N)NC(=O)[C@@H]3CCCN3C(=O)[C@@H]3CCCN3C1=O)C(=O)N[C@@H](Cc1ccccc1)C(=O)N1CCC[C@H]1C(=O)N[C@@H](CC(=O)O)C(=O)N[C@@H](CC(=O)O)C(=O)N[C@@H](Cc1ccccc1)C(=O)N2 | BT-474 (HER2+) | cell growth | – | 72 h | – | – | 0.28 ± 0.021 µM |
| CCOP(=O)(OCC)OCCCCOC(=O)CC1=C(C)C(=Cc2ccc([S+](C)[O-])cc2)c2ccc(F)cc21 (stereo not shown) | A549 mock siRNA-transfected | cell viability | – | 24 h | – | – | 95 µM |
| Cc1cc(C)c(-n2c[n+](-c3c(C)cc(C)cc3C)c3c2-c2cccc4cccc-3c24)c(C)c1.[Cl][Pd-]([Cl])[CH2]C=Cc1ccccc1 | C13 cisplatin-resistant | cell viability | MTT | 72 h | – | – | 2.6 ± 0.4 µM |
| C=C(C)CC(OC)C(O)C(=O)NC(OC)C1CC(OC(C)=O)C(C)(C)C(CC(O)C(C)C2Cc3c(C)c(O)cc(O)c3C(=O)O2)O1 (single isomer, unassigned; (+)) | H522-T1 | cell growth or viability | – | – | – | – | 0.0007 µM |
| NC1CCCCC1N.O=C1[O][Pt]([O]C(=O)c2ccc(P(c3ccccc3)c3ccccc3)cc2)([O]C(=O)c2ccc(P(c3ccccc3)c3ccccc3)cc2)[O]C1=O.[Cl][Au].[Cl][Au] | IMR-90 | cell growth or viability | resazurin | 72 h | – | – | > 100 µM |
| COc1cc(/C=C(\C#N)C(=O)Nc2nnc(C(F)(F)F)s2)ccc1OC(=O)N1CCN(C(=O)CCCC(=O)NCCCC[C@@H]2NC(=O)[C@@H](Cc3ccc(O)cc3)NC(=O)[C@H](CC(=O)O)NC(=O)CNC(=O)[C@H](CCCNC(=N)N)NC2=O)CC1 | U87 | cytotoxicity | MTT | 48 h | – | – | 78 ± 1.3 µM |
| CC(C)C[C@H](NC(=O)[C@H](CC(C)C)NC(=O)[C@H](CCC(=O)O)NC(=O)[C@H](CCC(=O)O)NC(=O)[C@H](CC(C)C)NC(=O)[C@H](Cc1c[nH]cn1)NC(=O)[C@H](Cc1c[nH]cn1)NC(=O)[C@H](CC(C)C)NC(=O)[C@H](CC(C)C)NC(=O)[C@H](CCC(=O)O)NC(=O)[C@H](CCC(=O)O)NC(=O)[C@@H](N)CC(C)C)C(=O)N[C@@H](Cc1c[nH]cn1)C(=O)N[C@@H](Cc1c[nH]cn1)C(N)=O | RG | cell viability | MTT | 0.5 h | pH 7.4 | – | > 100 µM |
| NC(=S)N/N=C/c1ccc(OCc2ccccc2)cc1 | IMR-32 | cell growth or viability | MTT | 24 h | – | – | 12 µg/mL |
| O=C(Cc1ccc2ccccc2c1)N[C@H](Cc1ccc(O)cc1)C(=O)N[C@H](Cc1ccccc1)C(=O)N[C@H](Cc1ccccc1)C(=O)N[C@H](Cc1ccc(OP(=O)(O)O)cc1)C(=O)O | HS5 | cell growth or viability | MTT | – | – | – | > 443 µg/mL |
| C=C(C)C[C@H](OC)[C@H](O)C(=O)N[C@@H](OC)[C@@H]1C[C@H](O)C(C)(C)[C@@H](C[C@H](O)[C@@H](C)[C@H]2Cc3c(C)c(O)cc(O)c3C(=O)O2)O1 | A2058 | cell growth or viability | – | – | – | – | 0.0004 µM |
| NC1CC1c1ccc(NC(=O)C(Cc2cccc3ccccc23)NC(=O)OCc2ccccc2)cc1 (stereo not shown) | MV4-11 (AML) | – | – | – | – | – | 7.6 ± 0.9 µM |
| C=C(C)CC(OC)C(O)C(=O)NC(OC)C1CC(OC(=O)c2ccccc2)C(C)(C)C(CC(O)C(C)C2Cc3c(C)c(O)cc(O)c3C(=O)O2)O1 (single isomer, unassigned; (-)) | H522-T1 | cell growth or viability | – | – | – | – | 0.0054 µM |
| CC(C)C[C@H](NC(=O)[C@H](CC(C)C)NC(=O)[C@H](Cc1c[nH]cn1)NC(=O)[C@H](CCC(=O)O)NC(=O)[C@H](CC(C)C)NC(=O)[C@H](Cc1c[nH]cn1)NC(=O)[C@H](CCC(=O)O)NC(=O)[C@H](CC(C)C)NC(=O)[C@H](CC(C)C)NC(=O)[C@H](Cc1c[nH]cn1)NC(=O)[C@H](CCC(=O)O)NC(=O)[C@@H](N)CC(C)C)C(=O)N[C@@H](CCC(=O)O)C(=O)N[C@@H](Cc1c[nH]cn1)C(N)=O | HK-2 | cell growth or viability | MTT | – | pH 7.4 | – | > 100 µM |
| O=C(Cc1ccc2ccccc2c1)N[C@H](Cc1ccccc1)C(=O)N[C@H](Cc1ccccc1)C(=O)N[C@H](Cc1ccc(OP(=O)(O)O)cc1)C(=O)N[C@H](Cc1ccc(OP(=O)(O)O)cc1)C(=O)O | HS5 | cell growth or viability | MTT | – | – | – | > 483 µg/mL |
| CC(C)C[C@H](NC(=O)[C@H](CCCCN)NC(=O)[C@H](CC(C)C)NC(=O)[C@H](CC(C)C)NC(=O)[C@H](CCCCN)NC(=O)[C@H](CCCCN)NC(=O)[C@H](CC(C)C)NC(=O)[C@H](CC(C)C)NC(=O)[C@H](CCCCN)NC(=O)[C@H](CC(C)C)NC(=O)[C@H](CC(C)C)NC(=O)[C@H](CCCCN)NC(=O)[C@H](CCCCN)NC(=O)[C@H](CC(C)C)NC(=O)[C@@H](N)CSSC[C@H](N)C(=O)N[C@@H](CC(C)C)C(=O)N[C@@H](CCC(=O)O)C(=O)N[C@@H](Cc1c[nH]cn1)C(=O)N[C@@H](CC(C)C)C(=O)N[C@@H](CC(C)C)C(=O)N[C@@H](CCC(=O)O)C(=O)N[C@@H](Cc1c[nH]cn1)C(=O)N[C@@H](CC(C)C)C(=O)N[C@@H](CCC(=O)O)C(=O)N[C@@H](Cc1c[nH]cn1)C(=O)N[C@@H](CC(C)C)C(=O)N[C@@H](CC(C)C)C(=O)N[C@@H](CCC(=O)O)C(=O)N[C@@H](Cc1c[nH]cn1)C(N)=O)C(N)=O | HK-2 | cell growth or viability | MTT | – | pH 7.4 | – | > 100 µM |
| Cc1cc(C)c(N2CCN(c3c(C)cc(C)cc3C)C2=[Se])c(C)c1.[Cl][Au] | A-431 | cell growth or viability | MTT | 72 h | – | – | 1.8 µM |
| CC(C)C[C@H](NC(=O)[C@H](CCCCN)NC(=O)[C@H](CC(C)C)NC(=O)[C@H](CC(C)C)NC(=O)[C@H](CCCCN)NC(=O)[C@H](CCCCN)NC(=O)[C@H](CC(C)C)NC(=O)[C@H](CC(C)C)NC(=O)[C@H](CCCCN)NC(=O)[C@H](CC(C)C)NC(=O)[C@H](CC(C)C)NC(=O)[C@H](CCCCN)NC(=O)[C@H](CCCCN)NC(=O)[C@H](CC(C)C)NC(=O)[C@@H](N)CSSC[C@H](N)C(=O)N[C@@H](CC(C)C)C(=O)N[C@@H](Cc1c[nH]cn1)C(=O)N[C@@H](CCC(=O)O)C(=O)N[C@@H](CC(C)C)C(=O)N[C@@H](CC(C)C)C(=O)N[C@@H](CCC(=O)O)C(=O)N[C@@H](Cc1c[nH]cn1)C(=O)N[C@@H](CC(C)C)C(=O)N[C@@H](Cc1c[nH]cn1)C(=O)N[C@@H](CCC(=O)O)C(=O)N[C@@H](CC(C)C)C(=O)N[C@@H](CC(C)C)C(=O)N[C@@H](CCC(=O)O)C(=O)N[C@@H](Cc1c[nH]cn1)C(N)=O)C(N)=O | HK-2 | cell growth or viability | MTT | – | pH 6 | – | 11.7 µM |
| [Cl][Ag].[Se]=c1n(C2CCCCC2)ccn1C1CCCCC1 | LoVo MDR | – | MTT | 72 h | – | – | 6.9 ± 1.1 µM |
| COc1cccc2c1cc([N+](=O)[O-])c1c(C(=O)O)cc3c(c12)OCO3 | HK-2 | cell growth or viability | SRB | 24 h | – | – | 103 µM |
| CC(=O)c1nn(-c2ccc(Cl)cc2)c2nc3nc(-c4ccccc4)cc(-c4ccc5ccccc5n4)c3c(=O)n12 | RPE-1 | cell growth or viability | MTT | 48 h | – | – | 23.6 µM |
